# Measurements of several laboratories.
# Numbered parts are unrelated; each lists some results of a single study. Values joined by “and” are separate records of one study, mostly repeats; a detail may differ. Numbers after ± are the reported error.
# Chain of UniProt Q96SW2 (whole entry, looked up): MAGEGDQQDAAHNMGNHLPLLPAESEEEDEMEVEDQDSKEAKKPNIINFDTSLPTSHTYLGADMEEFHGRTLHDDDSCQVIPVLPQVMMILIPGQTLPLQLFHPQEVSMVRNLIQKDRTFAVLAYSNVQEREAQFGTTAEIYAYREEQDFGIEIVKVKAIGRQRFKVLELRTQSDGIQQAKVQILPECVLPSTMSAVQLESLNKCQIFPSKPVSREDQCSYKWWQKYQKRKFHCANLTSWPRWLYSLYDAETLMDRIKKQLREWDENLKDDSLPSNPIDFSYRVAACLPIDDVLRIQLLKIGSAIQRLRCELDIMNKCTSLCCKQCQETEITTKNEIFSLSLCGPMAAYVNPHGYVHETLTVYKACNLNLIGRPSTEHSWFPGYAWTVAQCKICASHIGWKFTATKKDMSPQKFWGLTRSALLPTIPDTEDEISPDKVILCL
# Chain of UniProt P41143 (whole entry, looked up): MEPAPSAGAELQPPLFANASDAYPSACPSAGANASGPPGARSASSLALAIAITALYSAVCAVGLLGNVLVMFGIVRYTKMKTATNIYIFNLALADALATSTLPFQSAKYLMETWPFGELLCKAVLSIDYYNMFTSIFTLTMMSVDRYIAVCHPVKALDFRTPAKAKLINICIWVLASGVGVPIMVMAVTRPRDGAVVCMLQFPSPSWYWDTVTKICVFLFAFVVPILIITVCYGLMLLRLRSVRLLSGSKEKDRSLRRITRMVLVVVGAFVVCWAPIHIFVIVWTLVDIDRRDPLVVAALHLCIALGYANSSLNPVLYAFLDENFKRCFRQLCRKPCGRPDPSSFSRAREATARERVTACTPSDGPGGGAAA
# Chain of UniProt Q12809 (whole entry, looked up): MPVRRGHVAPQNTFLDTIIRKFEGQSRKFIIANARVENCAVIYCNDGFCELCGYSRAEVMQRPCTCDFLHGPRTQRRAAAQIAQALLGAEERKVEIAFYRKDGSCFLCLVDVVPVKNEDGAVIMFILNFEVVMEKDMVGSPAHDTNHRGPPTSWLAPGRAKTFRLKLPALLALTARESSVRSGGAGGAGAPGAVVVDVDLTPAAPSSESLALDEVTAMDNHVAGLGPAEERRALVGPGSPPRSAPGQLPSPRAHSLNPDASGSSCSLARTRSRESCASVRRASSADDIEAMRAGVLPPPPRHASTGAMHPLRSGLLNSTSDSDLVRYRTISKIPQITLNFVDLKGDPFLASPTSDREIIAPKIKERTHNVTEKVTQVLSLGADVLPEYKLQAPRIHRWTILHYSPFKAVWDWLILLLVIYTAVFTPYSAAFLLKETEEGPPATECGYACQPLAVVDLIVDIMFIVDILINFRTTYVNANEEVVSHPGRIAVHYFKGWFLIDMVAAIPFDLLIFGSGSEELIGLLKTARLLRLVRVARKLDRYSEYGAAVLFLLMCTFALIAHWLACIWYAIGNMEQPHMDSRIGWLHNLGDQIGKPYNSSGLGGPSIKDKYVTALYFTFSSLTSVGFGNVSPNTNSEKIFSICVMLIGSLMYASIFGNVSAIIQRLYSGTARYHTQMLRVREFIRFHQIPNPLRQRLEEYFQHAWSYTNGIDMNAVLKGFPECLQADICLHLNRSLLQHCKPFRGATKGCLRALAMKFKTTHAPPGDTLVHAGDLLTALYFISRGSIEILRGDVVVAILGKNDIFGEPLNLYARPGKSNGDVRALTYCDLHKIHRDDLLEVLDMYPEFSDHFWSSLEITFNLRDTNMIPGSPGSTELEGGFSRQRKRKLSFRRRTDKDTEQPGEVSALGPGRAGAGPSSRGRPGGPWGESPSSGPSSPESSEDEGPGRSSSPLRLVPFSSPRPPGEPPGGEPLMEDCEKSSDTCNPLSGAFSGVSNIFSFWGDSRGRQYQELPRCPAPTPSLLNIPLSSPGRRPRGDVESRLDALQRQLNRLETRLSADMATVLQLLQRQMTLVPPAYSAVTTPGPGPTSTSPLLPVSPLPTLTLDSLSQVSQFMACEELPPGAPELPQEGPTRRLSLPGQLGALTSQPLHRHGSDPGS
# Chain of UniProt Q9UKS7 (whole entry, looked up): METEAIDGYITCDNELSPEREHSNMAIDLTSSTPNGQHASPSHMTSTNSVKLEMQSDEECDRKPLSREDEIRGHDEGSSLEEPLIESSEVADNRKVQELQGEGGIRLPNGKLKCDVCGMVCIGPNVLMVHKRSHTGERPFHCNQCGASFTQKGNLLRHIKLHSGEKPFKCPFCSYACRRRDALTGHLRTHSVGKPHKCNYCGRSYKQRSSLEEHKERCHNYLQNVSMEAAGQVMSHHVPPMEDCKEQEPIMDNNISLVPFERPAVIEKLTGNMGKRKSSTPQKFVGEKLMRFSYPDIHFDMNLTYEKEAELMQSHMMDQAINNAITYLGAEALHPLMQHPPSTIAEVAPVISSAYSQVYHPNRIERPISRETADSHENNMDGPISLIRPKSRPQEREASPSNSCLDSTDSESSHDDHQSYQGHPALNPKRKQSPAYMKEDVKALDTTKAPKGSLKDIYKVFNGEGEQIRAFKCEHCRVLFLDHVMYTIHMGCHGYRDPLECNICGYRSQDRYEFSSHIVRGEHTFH

# Block 1 — cells: human cells
# SMILES: N=C(N)NCCCCCN1CC[C@]23c4c5ccc(O)c4O[C@H]2c2nc4ccccc4cc2C[C@@]3(O)[C@H]1C5
target,Emax
"Delta-type opioid receptor, with Gi3 (OPRD1, Homo sapiens, UniProt P41143)",94 ± 3%
"Delta-type opioid receptor, with GoB (OPRD1, Homo sapiens, UniProt P41143)",90 ± 4%
"Delta-type opioid receptor, with GoA (OPRD1, Homo sapiens, UniProt P41143)",82 ± 3%
"Delta-type opioid receptor, with Gi2 (OPRD1, Homo sapiens, UniProt P41143)",76 ± 6%
"Delta-type opioid receptor, with Gz (OPRD1, Homo sapiens, UniProt P41143)",97 ± 3%

# Block 2 — organism: Escherichia coli; read-out: microbial growth; time: 16 h
Structure (SMILES),MIC [µg/mL]
CCCCC[C@@H](O)CC(=O)N[C@H]1COC(=O)[C@H](CO)NC(=O)CNC(=O)[C@H]([C@@H](C)O)NC(=O)[C@H](Cc2ccccc2)NC(=O)[C@@H](Cc2c[nH]c3ccccc23)NC(=O)[C@@H]([C@H](C)O)NC(=O)[C@H](CC(N)=O)NC(=O)[C@@H]([C@H](C)O)NC(=O)[C@H](CC(C)C)NC(=O)[C@@H](Cc2c[nH]c3ccccc23)N(C)C(=O)CNC(=O)[C@H](CO)NC(=O)[C@@H](CO)NC1=O,> 64
CCCCC[C@@H]1CC(=O)N[C@@H](C(C)C)C(=O)N[C@H](CCCNC(=N)N)C(=O)N[C@@H](CO)C(=O)NCC(=O)N(C)[C@H](Cc2ccccc2)C(=O)N[C@@H](CC(C)C)C(=O)N[C@H](CCCNC(=N)N)C(=O)N[C@@H](CCC(=O)O)C(=O)N[C@H](C(C)C)C(=O)N[C@H](Cc2c[nH]c3ccccc23)C(=O)NCCCC(=O)O1,> 64
CCCCC[C@@H]1CC(=O)N[C@@H](C(C)C)C(=O)N[C@H](CCC(=O)O)C(=O)N[C@@H](CCCNC(=N)N)C(=O)NCC(=O)N2CCC[C@H]2C(=O)N[C@@H](CC(C)C)C(=O)N[C@H](CCC(N)=O)C(=O)N[C@@H](CCC(=O)O)C(=O)N[C@H](Cc2ccc(O)cc2)C(=O)N[C@H](Cc2c[nH]c3ccccc23)C(=O)NCCCC(=O)O1,> 64
CCCCC[C@@H]1CC(=O)N[C@@H](CO)C(=O)N[C@H](CC(N)=O)C(=O)N[C@@H](CO)C(=O)NCC(=O)N(C)[C@H](Cc2ccccc2)C(=O)N[C@@H](CC(C)C)C(=O)N[C@H](CCCN)C(=O)N[C@@H](CCC(=O)O)C(=O)N[C@H](CC(N)=O)C(=O)N[C@H](Cc2c[nH]c3ccccc23)C(=O)N[C@H](CCCN)C(=O)N(C)[C@@H](C(C)C)C(=O)O1,> 64

# Other studies, line by line
Compound,tested on,test,test system,conditions,measurement,result
Cc1ccc(O)c(C)c1-c1cnc2[nH]c(-c3cnc(N4CCC(CN5CCN(c6ccc7c8c(cccc68)C(=O)N7C6CCC(=O)NC6=O)CC5)CC4)nc3)cc2c1C#N (racemic),HCC1569,"in-cell western, item: CDK1 phospho-Thr14",,1000 nM,pCDK1 (Thr14) level,64% and 54.8%
Cn1cc(-c2cccc(CN3CCC4(CC3)COc3c4ccc4c3CN([C@H]3CCC(=O)NC3=O)C4=O)c2)cn1,"KCNH2 (Homo sapiens, UniProt Q12809)","potassium current, inhibitor, manual patch clamp",,nominal concentrations,IC50,30.8 µM
O=C1CC[C@@H](Nc2ccc(N3CCNCC3)c(F)c2)C(=O)N1,"Protein cereblon (CRBN, Homo sapiens, UniProt Q96SW2)",binding,,30000 nM,inhibition,99.2% and 81.6%
O=C1CCC(N2Cc3c(ccc4c3OCC43CCN(Cc4ccccc4)CC3O)C2=O)C(=O)N1 (centres unmarked),"CRBN/Zinc finger protein Helios (Homo sapiens, UniProt Q96SW2+Q9UKS7)","degrader, HiBiT",HEK293,10000 nM,protein remaining,64.5%
Cc1ccc(O)c(C)c1-c1cnc2[nH]c(-c3cnc(N4CCC(CN5CCN(c6ccc(N7CCC(=O)NC7=O)cc6F)CC5)CC4)nc3)cc2c1C#N,HCC1569,"in-cell western, item: CDK1 phospho-Thr14",,111.11 nM,pCDK1 (Thr14) level,44.4% and 43.2%

# A few entries again (other studies, line by line):
Compound,tested on,test,test system,conditions,measurement,result
Cn1cc(-c2cccc(CN3CCC4(CC3)COc3c4ccc4c3CN([C@H]3CCC(=O)NC3=O)C4=O)c2)cn1,"KCNH2 (Homo sapiens, UniProt Q12809)","potassium current, inhibitor, manual patch clamp",,nominal concentrations,IC50,30.8 µM
